Experimental data from different studies.
Values joined by “and” are separate records of one study, mostly repeats; a detail may differ. ± gives the spread as reported. Converted amounts (≈) assume the structure as drawn.

Compound	assay	test system	conditions	how to read	quantity	result
O=C(CC1OCCN(Cc2ccccc2)C1=O)Nc1ccc2c(c1)OCCO2 (centres unmarked)		aqueous buffer	pH 7.4		thermodynamic solubility	119 µM (≈ 45.5 µg/mL)
CCc1cc(C(=O)NC)c2nccc(N3CCc4c(cc(Cn5ccnc5)cc4-c4cn(C)nc4C(F)(F)F)C3=O)c2c1		Sprague Dawley rats	oral, 100 mg/kg twice daily, 7 days		serum TG level	0.8 ± 0.3 mmol/L
CC(C)[C@@H](CN1CC[C@@](C)(c2cccc(O)c2)[C@@H](C)C1)NC(=O)[C@H]1Cc2ccc(O)cc2CN1		rat, brain	intraperitoneal, 3 mg/kg		AUClast	6980 ng·h/g
O=C(O)c1cc(/N=N/c2ccc(S(=O)(=O)Nc3ccccn3)cc2)ccc1O	shake-flask	Cremophor ELP	37 °C, water up to 0.5% w/w		thermodynamic solubility	6.35 ± 0.33 mg/g
O=C1NCCc2nc(OCc3cccc(F)c3)ccc21	modified Irwin test	Sprague-Dawley rat, male	oral, 100 mg/kg, 1 h	higher = stronger change	respiratory rate score	0
Cc1nc(-c2ccc(OCC(C)C)c(C#N)c2)sc1C(=O)O		healthy Chinese subjects, fasted	oral, 40 mg single dose		subjects with ALT increase	2.6%
O=S(=O)(c1ccc(-c2ccc3nccc(Nc4ccncn4)c3c2)cc1)N1CCOCC1		female BALB/c mice, brain	intraperitoneal, 10 mg/kg, 1 h, mean		brain concentration	67.3 ng/g
CCC(C)n1ncn(-c2ccc(N3CCN(c4ccc(OCC5COC(Cn6cncn6)(c6ccc(Cl)cc6Cl)O5)cc4)CC3)cc2)c1=O (centres unmarked)		human, plasma	oral, dose not given, day 14 predose, mean		trough plasma concentration	140 ng/mL
COc1c(C)c2c(c(O[C@@H]3O[C@H](C(=O)O)[C@@H](O)[C@H](O)[C@H]3O)c1C/C=C(\C)CCC(=O)O)C(=O)OC2		healthy subjects, plasma	oral, 1 g mycophenolate mofetil		half-life, mean	13.3 h
NC(=O)N1c2ccccc2CC(O)c2ccccc21 (centres unmarked)	population PK modelling	human patients, plasma	weight-scaled, shared estimated exponent		clearance	2.85 L/h
CNC(=O)c1ccc(-c2nn3c(Cc4ccc5ncccc5c4)cnc3[nH]c2=O)cc1F		human plasma	-20 °C		storage stability	≥ 275 days
CC(C)(C(=O)N1CCOc2c(C#N)cncc2C1)C(F)F	measured: nervous system disorders	human	oral, 20 mg twice daily, 14 days, multiple ascending dose		subjects with adverse event	25%
CCn1c(=O)c(-c2cc(NC(=O)Nc3ccccc3)c(F)cc2Br)cc2cnc(NC)cc21	measured: amylase increased	human, severe hepatic impairment	oral, 50 mg single dose		participants with grade ≥ 3 TEAE	0%
CC(F)(F)c1nc2nc(CO)cc(Nc3ccc(S(F)(F)(F)(F)F)cc3)n2n1	LC-MS/MS	malaria patients, plasma	oral, 800 mg of parent drug		half-life, metabolite	134 h
CNC(=O)c1ccc(-c2cnc3ncc(Cc4ccc5ncccc5c4)n3n2)cc1F	phase 1 clinical trial, measured: blood creatinine increased	HCC expansion cohort	oral, 600 mg twice daily, grade 3 or 4		adverse event incidence	9%
CCN(CC)Cc1ccc2cc(COC(=O)Nc3ccc(C(=O)NO)cc3)ccc2c1		rat plasma	3200 ng/mL, 21 days, -80 °C	baseline: nominal concentration	stability relative error	101%
CCCC1CCC(c2ccc(OCC)c(F)c2F)CC1 (centres unmarked)		rat, fetus	1000 ng/mL in perfusate, middle dose, mixture of 21 LCMs		median fetal accumulation	0.209 ng/g
CNCCOC12CC3(C)CC(C)(CC(Cn4ncc(-c5ccc(N6CCc7cccc(C(=O)Nc8nc9ccccc9s8)c7C6)nc5C(=O)O)c4C)(C3)C1)C2		beagle dog, male, anaesthetised	intravenous bolus, 0.03 mg/kg, 180 min	baseline: baseline	dP/dt at 50 change	-24%
Cn1cc(-c2cn3nccc3c(-c3cnn([C@]4(CC#N)C[C@@H](C#N)C4)c3)n2)cn1		healthy human, plasma	100 mg once daily, day 10, multiple dose, fed, geometric mean		MRT	9.9 h
Cc1cc(C)c(CNC(=O)c2cc(Cl)c3c(c2C)O[C@@](C)([C@H]2CC[C@H](N(C)C)CC2)O3)c(=O)[nH]1	radiochromatography	human, feces	oral, 200 mg	baseline: dose	fecal excretion	63.6% and 67.4% and 50% and 51.6%
CCN1/C(=C/C(C)=O)Sc2ccc(F)cc21		cynomolgus monkey	oral, 30 mg/kg, 4 h post-dose		heart rate	94 ± 24 beats/min

Compound	assay	test system	conditions	how to read	quantity	result
Cn1cc(Nc2nccc(-c3ccc4c(c3)CN(C3COC3)CC[C@H]4NC(=O)c3cn(C(C)(C)C)nn3)n2)cn1		human, whole blood	300 mg twice daily, day 7	baseline: pre-dose baseline	CD4+ T cell count change	-2.1%
Cc1cc(NC2CCN(C(=O)OC3CCN(C(=O)/C=C/CN(C)C)C3)CC2)n2ncc(C(C)C)c2n1 (centres unmarked)	Phase I dose escalation CTCAE v4.0, measured: abdominal pain	patients with advanced solid tumours	dose not given, QD dosing any grade		patients with adverse event	23%
C[C@@H](Nc1cc(F)cc(F)c1)c1cc(C(=O)N(C)C)cc2c(=O)cc(N3CCOCC3)oc12	measured: Anemia	advanced solid tumour patients	oral, dose not given, dose finding		related serious adverse events	1.6%
COc1cccc2c1C(=O)c1c(O)c3c(c(O)c1C2=O)C[C@@](O)(C(=O)CO)C[C@@H]3O[C@H]1C[C@H](N)[C@H](O)[C@H](C)O1		healthy mouse, plasma	intravenous, 13.3 mg/kg, extrapolated to time zero		C0	25 µM
O=C(O)CCC(=O)O.[2H]C([2H])([2H])Oc1cc(C)c2[nH]ccc2c1CN1CC[C@@H](C2CC2)C[C@H]1c1ccc(C(=O)O)cc1	ECG	healthy Chinese subjects	oral, 300 mg once daily, multiple ascending dose		TEAE T wave abnormality	0%
C[C@@H](O)[C@H](NC(=O)c1ccc(-c2ccccc2)cc1)C(=O)NCC1(C)NC(=O)NC1=O (some centres unmarked)		aqueous buffer	pH 7.4		thermodynamic solubility	3230 µM (≈ 1370 µg/mL)
CC(C)c1nc(N(C)S(C)(=O)=O)nc(-c2ccc(F)cc2)c1/C=C/[C@@H](O)C[C@@H](O)CC(=O)O	measured: Headache	human	oral, 10 mg		participants with TEAE	3.4%
CCCC[C@H]1CC[C@H](c2ccc(C#N)cc2)CC1		Sprague-Dawley rat, female, placenta	1000 ng/mL in perfusate, 50 (unit not given), middle dose, mixture of 21 LCMs		median placental accumulation	5.66 ng/g
O=C(Nc1nc2cccc(-c3ccc(CN4CCS(=O)(=O)CC4)cc3)n2n1)C1CC1	measured: hypotension	human rheumatoid arthritis patients	oral, 300 mg once daily, 4 weeks, regardless of relatedness		treatment-emergent adverse events	0%
N#Cc1ccc2c(c1)[C@H]1CCCN(C(=O)c3ccc4[nH]cnc4c3)[C@H]1C2		human, plasma	80 mg once daily, day 14		pre-dose plasma concentration	1640 nmol/L
CN1C(=O)[C@@H](NC(=O)c2nnc(Cc3ccccc3)[nH]2)COc2cccnc21	phase I multiple ascending dose	human, male and female	oral, 600 mg, 14 days		medical device site reaction incidence	12.5%
CNCc1ccc(-c2[nH]c3cc(F)cc4c3c2CCNC4=O)cc1		human patients	oral, 600 mg twice daily, grade 3		incidence of anaemia (haemoglobin decreased)	7.7%
N#Cc1ccc2c(c1)[C@H]1CCCN(C(=O)c3ccc4[nH]cnc4c3)[C@H]1C2		human	80 mg, end of trial	baseline: baseline	ACTH level change	1 pmol/L
CNC(=O)c1ccc(-c2cnc3ncc(Cc4ccc5ncccc5c4)n3n2)cc1F		healthy human subjects	oral, 400 mg, grade 3, all causality, together with: rifampicin 600 mg/day		abdominal discomfort incidence	0%
c1ccc(CCNc2nc(-c3ccccn3)nc3ccccc23)nc1		Japanese Pharmacopoeia disintegration test solution 2	pH 6.8		kinetic solubility	80 µg/mL (≈ 244 µM)
CC(=O)N(C)C1CCN(c2cc(F)cc(NC(=O)c3cc4c(F)ccc(C)c4[nH]3)c2)C1 (centres unmarked)		CD1 mouse, plasma	oral, 50 mg/kg, 0.25 h		plasma concentration	16.4 ng/mL
Cc1cc(Nc2cc3ncccc3c(N[C@@H]3C[C@H]4CC[C@@H](C3)N4CCC#N)n2)n[nH]1		human, plasma	80 mg, day 1, geometric mean		AUC(0-4)	3.33 ng·h/mL
COc1ccc2c(c1)CN(C(=O)CCN1CCC(Cc3ccccc3)CC1)CC[S@@+]2[O-]	telemetry	conscious male beagle dogs	intravenous, 4 mg/kg, 0.5 h		systolic blood pressure	134 ± 17 mmHg
COc1cccc(-c2n[nH]c(SCc3ccccn3)n2)c1OC		Sprague-Dawley rats, both sexes	oral dietary, 10 mg/kg/day, day 90, 0 h		plasma concentration	264 ng/mL
CCN1CCN(Cc2ccc(NC(=O)c3ccc(C)c(NC(=O)c4cncc(-c5cccs5)c4)c3)cc2C(F)(F)F)CC1	LC-MS/MS	C57BL/6 mouse, plasma	intraperitoneal, 10 mg/kg single dose, 0.5 h		plasma concentration	416 ng/mL and 581 ng/mL and 468 ng/mL

Repeated from above:
Compound	assay	test system	conditions	how to read	quantity	result
N#Cc1ccc2c(c1)[C@H]1CCCN(C(=O)c3ccc4[nH]cnc4c3)[C@H]1C2		human	80 mg, end of trial	baseline: baseline	ACTH level change	1 pmol/L
CNC(=O)c1ccc(-c2cnc3ncc(Cc4ccc5ncccc5c4)n3n2)cc1F		healthy human subjects	oral, 400 mg, grade 3, all causality, together with: rifampicin 600 mg/day		abdominal discomfort incidence	0%
c1ccc(CCNc2nc(-c3ccccn3)nc3ccccc23)nc1		Japanese Pharmacopoeia disintegration test solution 2	pH 6.8		kinetic solubility	80 µg/mL (≈ 244 µM)
CC(=O)N(C)C1CCN(c2cc(F)cc(NC(=O)c3cc4c(F)ccc(C)c4[nH]3)c2)C1 (centres unmarked)		CD1 mouse, plasma	oral, 50 mg/kg, 0.25 h		plasma concentration	16.4 ng/mL
Cc1cc(Nc2cc3ncccc3c(N[C@@H]3C[C@H]4CC[C@@H](C3)N4CCC#N)n2)n[nH]1		human, plasma	80 mg, day 1, geometric mean		AUC(0-4)	3.33 ng·h/mL
COc1ccc2c(c1)CN(C(=O)CCN1CCC(Cc3ccccc3)CC1)CC[S@@+]2[O-]	telemetry	conscious male beagle dogs	intravenous, 4 mg/kg, 0.5 h		systolic blood pressure	134 ± 17 mmHg
